Assay results pooled from the literature.
Compare with care: the assays were run in different laboratories. ± marks the error that the study gave.

Compound = CCCC[C@H](NC(=O)[C@@H](NC(=O)[C@H](CC(=O)O)NC(=O)[C@H](CCC(N)=O)NC(=O)[C@H](CC(C)C)NC(=O)[C@H](CC(C)C)NC(=O)[C@H](CCCN)NC(=O)[C@H](CCCNC(=N)N)NC(=O)[C@H](C)NC(=O)[C@H](CO)NC(=O)[C@H](CC(C)C)NC(=O)[C@H](CCC(N)=O)NC(=O)[C@H](CC)NC(=O)[C@H](CC(C)C)NC(=O)[C@@H](NC(=O)[C@H](CCCN)NC(=O)[C@H](CCCNC(=N)N)NC(=O)[C@H](Cc1ccc(O)cc1)NC(=O)[C@H](CO)NC(=O)[C@H](CC(N)=O)NC(=O)[C@@H](NC(=O)[C@H](Cc1ccccc1)NC(=O)[C@@H](NC(=O)[C@H](C)NC(=O)[C@H](CC(=O)O)NC(=O)[C@@H](C)NC(=O)[C@H](Cc1ccc(O)cc1)NC)[C@@H](C)CC)[C@@H](C)O)C(C)C)[C@@H](C)CC)C(=O)N[C@@H](CC(=O)O)C(=O)NCCCCNC(=N)N; assay = GH release; test system = rat, male, serum; setting = subcutaneous, dose not given, 15 and 30 min; how to read = relative to: reference GHRH agonist JI-38; quantity = relative potency; value = 1 to 4 fold
Compound = Cc1cc(O)c(C=O)c2c1C(=O)Oc1c(CO)c(O)c3c(c1O2)C(O)OC3=O (stereo not shown); test system = rat, male, streptozotocin-induced diabetes, cauda epididymis; setting = 5 mg/kg, 9 weeks; quantity = sperm viability; value = 56.3 ± 2.34%
Compound = Nc1ccc(-c2nnc(S)o2)cc1; assay = nitric oxide scavenging; quantity = IC50; value = 44.1 ± 3 µM
Compound = O=C([O-])CN1CCN(CC(=O)[O-])CCN(CC(=O)c2ccc(-c3ccc(OCC(=O)O)cc3)cc2)CCN(CC(=O)[O-])CC1.[Eu+3]; test system = 1 M HCl; setting = 298 K, complex dissociation; quantity = dissociation rate constant; value = 3.6e-05 ± 2e-06 s⁻¹
Compound = COc1ccc(C2CC(c3ccc(C)cc3)=Nc3ccccc3S2)cc1 (stereo not shown); test system = Wistar rat, STZ-induced diabetes, serum; setting = 20 mg/kg, 28 days; quantity = total cholesterol; value = 133 mg/dL
Compound = N[C@@H](Cc1c[nH]cn1)C(=O)N1CCC[C@H]1C(=O)NCC(=O)NCC(=O)O; assay = diketopiperazine formation, Arrhenius plot, ESI-MS; test system = 1-propanol; setting = 70, 80, 90 °C, 0.5% acetic acid; quantity = activation energy; value = 86 ± 3 kJ/mol
Compound = CCCCCCCCCCCCCCCC(=O)N[C@@H](CCCCN)C(=O)N[C@@H](CCCCN)C(=O)N[C@@H](CO)C(=O)N[C@@H](CCCNC(=N)N)C(=O)N[C@@H](C)C(=O)N[C@@H](CC(C)C)C(=O)N[C@@H](Cc1ccccc1)C(N)=O; assay = arteriovenous shunt Dacron graft; test system = baboon; setting = 1 mg/kg; quantity = platelet-thrombus deposition; value = no effect
Compound = O=C1/C(=C/c2ccc(O)c(O)c2)Oc2cc(O)c(-c3ccc(O)c(O)c3)c(O)c21; assay = ABTS scavenging, absorbance; quantity = EC50; value = 880 µM
Compound = CCCC[C@H](NC(=O)[C@@H](NC(=O)[C@H](CC(=O)O)NC(=O)[C@H](CCC(N)=O)NC(=O)[C@H](CC(C)C)NC(=O)[C@H](CC(C)C)NC(=O)[C@H](CCCN)NC(=O)[C@H](CCCNC(=N)N)NC(=O)[C@H](C)NC(=O)[C@H](CO)NC(=O)[C@H](CC(C)C)NC(=O)[C@H](CCC(N)=O)NC(=O)[C@H](CC)NC(=O)[C@H](CC(C)C)NC(=O)[C@@H](NC(=O)[C@H](CCCN)NC(=O)[C@H](CCCNC(=N)N)NC(=O)[C@H](Cc1ccc(O)cc1)NC(=O)[C@H](CO)NC(=O)[C@H](CCC(N)=O)NC(=O)[C@@H](NC(=O)[C@H](Cc1ccccc1)NC(=O)[C@@H](NC(=O)[C@H](C)NC(=O)[C@H](CC(=O)O)NC(=O)[C@H](C)NC(=O)CCc1ccc(O)cc1)[C@@H](C)CC)[C@@H](C)O)C(C)C)[C@@H](C)CC)C(=O)N[C@@H](CC(=O)O)C(=O)N[C@@H](CCCNC(=N)N)C(=O)NC; assay = GH release; test system = rat, male, serum; setting = subcutaneous, 3 µg/kg, 15 min; how to read = relative to: reference GHRH agonist JI-38; quantity = relative potency; value = 1.1
Compound = [2H]C([2H])([2H])C(c1cc2nnc(-c3cc(F)ccc3F)n2nc1OCc1ncnn1C)(C([2H])([2H])[2H])C([2H])([2H])[2H]; test system = amygdala-kindled Wistar rats, amygdala; setting = oral, 30 mg/kg, 2 h before stimulation; how to read = relative to: baseline; quantity = afterdischarge duration change; value = -64%
